Experimental data collected from several papers.
“And” joins repeats or separate records; there may be more than shown. Numbers after ± are the reported error.

| Compound | tested on | assay | system | setting | how to read | endpoint | value |
| --- | --- | --- | --- | --- | --- | --- | --- |
| CCOc1nc(N)ncc1-c1cn([C@@H]2O[C@](F)(COC(=O)C(C)C)[C@@H](OC(=O)C(C)C)[C@H]2OC(=O)C(C)C)cn1 | Zaire ebolavirus | viral replication, reporter virus | Huh-7 | 72 h | – | IC50 | 85.6 µM |
| CC(C)[C@H]1C(=O)O[C@H](C(C)C)C(=O)N(C)[C@@H](C(C)C)C(=O)O[C@H](C(C)C)C(=O)N(C)[C@@H](C(C)C)C(=O)O[C@H](C(C)C)C(=O)N1C | – | LC-MS/MS | CB-17 scid/scid mice, colon | intraperitoneal, 5 mg/kg, 24 h after last dose, daily dosing | – | tissue concentration | 0.15 µg/kg |
| NC(=O)c1ncn([C@@H]2O[C@H](CO)[C@@H](O)[C@H]2O)n1 | Lassa virus | – | HeLa, clade III Nigeria-231 | – | – | EC50 | 2.38 ± 0.4 µM |
| Cc1cccc(-c2[nH]c(C(C)(C)C)nc2-c2ccc3c(c2)OCO3)n1 | MERS-CoV spike VSV pseudovirus | pseudovirus entry | – | 10 µM | – | inhibition | 56% |
| NC(=O)c1nc(F)c[nH]c1=O | Lassa virus | – | HeLa, clade II Nigeria-322 | – | – | EC50 | 47.3 ± 12.5 µM |
| COc1ncc(-c2cn([C@@H]3O[C@](F)(CO)[C@@H](O)[C@H]3O)cn2)c(OC)n1 | Zaire ebolavirus | viral replication, reporter virus | Huh-7 | 72 h | – | IC50 | > 100 µM |
| O=c1ccn([C@@H]2O[C@](F)(CO)[C@@H](O)[C@H]2O)c(=O)[nH]1 | Mammarenavirus lassaense | viral replication | HeLa, clade IV NJ-2015 | – | – | EC50 | 2.09 µM |
| COc1cc2ncnc(Nc3cccc(Cl)c3)c2cc1OC | Monkeypox virus | viral infection | replication-deficient | 0.137 µM | baseline: untreated | infection | 103% and 99.4% and 106% |

A few entries again:
| Compound | tested on | assay | system | setting | how to read | endpoint | value |
| --- | --- | --- | --- | --- | --- | --- | --- |
| COc1ncc(-c2cn([C@@H]3O[C@](F)(CO)[C@@H](O)[C@H]3O)cn2)c(OC)n1 | Zaire ebolavirus | viral replication, reporter virus | Huh-7 | 72 h | – | IC50 | > 100 µM |
